Assay results from different studies.
Every numbered part comes from another study and shows a few of its results, in no order.
Chain of UniProt O95747 (whole entry, looked up): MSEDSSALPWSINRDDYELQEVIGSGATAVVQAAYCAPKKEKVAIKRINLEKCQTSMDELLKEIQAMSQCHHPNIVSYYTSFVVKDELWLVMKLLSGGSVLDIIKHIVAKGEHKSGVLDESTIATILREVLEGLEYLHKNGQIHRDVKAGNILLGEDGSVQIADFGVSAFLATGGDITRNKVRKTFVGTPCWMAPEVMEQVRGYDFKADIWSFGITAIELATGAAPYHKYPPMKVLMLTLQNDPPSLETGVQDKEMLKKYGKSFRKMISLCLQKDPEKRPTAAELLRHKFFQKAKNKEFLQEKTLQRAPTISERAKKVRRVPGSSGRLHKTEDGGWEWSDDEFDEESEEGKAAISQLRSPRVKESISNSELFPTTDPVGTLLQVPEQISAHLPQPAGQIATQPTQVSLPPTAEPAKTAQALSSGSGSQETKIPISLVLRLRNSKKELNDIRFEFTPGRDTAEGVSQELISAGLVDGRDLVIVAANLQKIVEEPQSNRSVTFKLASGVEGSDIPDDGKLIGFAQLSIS
Chain of UniProt O96017 (whole entry, looked up): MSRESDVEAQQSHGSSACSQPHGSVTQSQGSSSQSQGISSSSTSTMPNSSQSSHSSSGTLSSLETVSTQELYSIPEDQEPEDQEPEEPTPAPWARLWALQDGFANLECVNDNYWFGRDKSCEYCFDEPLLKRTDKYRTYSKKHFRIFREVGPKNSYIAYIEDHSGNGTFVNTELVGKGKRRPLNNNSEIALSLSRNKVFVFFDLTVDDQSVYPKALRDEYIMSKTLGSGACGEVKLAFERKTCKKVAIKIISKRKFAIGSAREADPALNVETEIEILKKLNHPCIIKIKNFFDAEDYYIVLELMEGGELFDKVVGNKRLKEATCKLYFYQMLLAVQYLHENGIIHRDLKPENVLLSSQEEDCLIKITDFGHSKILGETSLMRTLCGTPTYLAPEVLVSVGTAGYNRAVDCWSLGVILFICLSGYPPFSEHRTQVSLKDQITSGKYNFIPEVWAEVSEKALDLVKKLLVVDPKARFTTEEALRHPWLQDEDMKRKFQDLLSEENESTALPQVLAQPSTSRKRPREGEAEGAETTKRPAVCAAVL
Chain of UniProt P05771 (whole entry, looked up): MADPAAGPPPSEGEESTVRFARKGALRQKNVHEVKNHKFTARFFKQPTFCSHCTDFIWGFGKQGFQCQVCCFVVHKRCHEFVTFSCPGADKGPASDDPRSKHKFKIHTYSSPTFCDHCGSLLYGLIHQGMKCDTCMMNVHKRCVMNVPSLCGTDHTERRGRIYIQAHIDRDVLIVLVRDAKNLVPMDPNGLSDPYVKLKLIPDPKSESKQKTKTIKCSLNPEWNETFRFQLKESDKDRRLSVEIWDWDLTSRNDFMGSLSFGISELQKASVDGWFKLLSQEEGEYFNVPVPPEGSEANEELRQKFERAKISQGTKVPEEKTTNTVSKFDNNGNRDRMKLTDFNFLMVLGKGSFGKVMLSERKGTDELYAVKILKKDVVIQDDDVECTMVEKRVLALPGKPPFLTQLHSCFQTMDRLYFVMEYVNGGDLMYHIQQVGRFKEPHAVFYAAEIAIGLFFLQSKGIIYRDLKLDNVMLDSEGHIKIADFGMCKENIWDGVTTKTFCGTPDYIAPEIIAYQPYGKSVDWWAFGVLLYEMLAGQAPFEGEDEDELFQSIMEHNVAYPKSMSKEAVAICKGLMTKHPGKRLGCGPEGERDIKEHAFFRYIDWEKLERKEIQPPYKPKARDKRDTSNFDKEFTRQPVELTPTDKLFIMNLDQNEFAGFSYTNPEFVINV
Chain of UniProt O14920 (whole entry, looked up): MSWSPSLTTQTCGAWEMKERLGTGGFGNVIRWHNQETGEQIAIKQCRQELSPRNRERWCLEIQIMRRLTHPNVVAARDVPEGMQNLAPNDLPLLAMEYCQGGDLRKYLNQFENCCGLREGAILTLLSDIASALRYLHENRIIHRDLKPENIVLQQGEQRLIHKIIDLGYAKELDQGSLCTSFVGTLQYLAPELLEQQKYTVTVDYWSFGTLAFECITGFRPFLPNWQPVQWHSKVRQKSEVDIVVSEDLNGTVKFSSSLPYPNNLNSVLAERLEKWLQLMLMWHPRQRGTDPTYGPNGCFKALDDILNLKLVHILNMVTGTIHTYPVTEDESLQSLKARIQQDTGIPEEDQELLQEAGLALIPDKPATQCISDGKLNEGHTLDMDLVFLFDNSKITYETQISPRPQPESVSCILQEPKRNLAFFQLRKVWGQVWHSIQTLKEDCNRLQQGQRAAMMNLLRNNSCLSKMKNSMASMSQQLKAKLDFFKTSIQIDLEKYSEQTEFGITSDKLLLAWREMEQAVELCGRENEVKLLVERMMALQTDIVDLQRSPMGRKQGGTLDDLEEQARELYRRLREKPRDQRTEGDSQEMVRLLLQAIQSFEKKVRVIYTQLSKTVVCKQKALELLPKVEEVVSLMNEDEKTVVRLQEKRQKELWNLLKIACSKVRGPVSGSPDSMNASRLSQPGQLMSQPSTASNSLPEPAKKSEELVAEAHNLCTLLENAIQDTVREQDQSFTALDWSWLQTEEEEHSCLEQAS
Chain of UniProt Q13557 (whole entry, looked up): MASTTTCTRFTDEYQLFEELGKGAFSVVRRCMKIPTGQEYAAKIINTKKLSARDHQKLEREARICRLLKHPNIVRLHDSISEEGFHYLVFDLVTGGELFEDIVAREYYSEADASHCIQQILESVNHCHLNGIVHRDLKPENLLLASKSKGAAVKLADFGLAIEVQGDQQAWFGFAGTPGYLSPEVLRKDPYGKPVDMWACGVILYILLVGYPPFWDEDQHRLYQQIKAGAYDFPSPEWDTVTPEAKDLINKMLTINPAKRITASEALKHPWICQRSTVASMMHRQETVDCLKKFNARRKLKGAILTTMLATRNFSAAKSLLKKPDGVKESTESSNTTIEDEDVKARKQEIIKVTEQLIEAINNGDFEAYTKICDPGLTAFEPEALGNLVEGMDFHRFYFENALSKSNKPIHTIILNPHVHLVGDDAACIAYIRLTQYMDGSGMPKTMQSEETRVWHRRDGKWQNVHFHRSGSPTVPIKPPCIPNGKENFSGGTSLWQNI
Chain of UniProt Q13976 (whole entry, looked up): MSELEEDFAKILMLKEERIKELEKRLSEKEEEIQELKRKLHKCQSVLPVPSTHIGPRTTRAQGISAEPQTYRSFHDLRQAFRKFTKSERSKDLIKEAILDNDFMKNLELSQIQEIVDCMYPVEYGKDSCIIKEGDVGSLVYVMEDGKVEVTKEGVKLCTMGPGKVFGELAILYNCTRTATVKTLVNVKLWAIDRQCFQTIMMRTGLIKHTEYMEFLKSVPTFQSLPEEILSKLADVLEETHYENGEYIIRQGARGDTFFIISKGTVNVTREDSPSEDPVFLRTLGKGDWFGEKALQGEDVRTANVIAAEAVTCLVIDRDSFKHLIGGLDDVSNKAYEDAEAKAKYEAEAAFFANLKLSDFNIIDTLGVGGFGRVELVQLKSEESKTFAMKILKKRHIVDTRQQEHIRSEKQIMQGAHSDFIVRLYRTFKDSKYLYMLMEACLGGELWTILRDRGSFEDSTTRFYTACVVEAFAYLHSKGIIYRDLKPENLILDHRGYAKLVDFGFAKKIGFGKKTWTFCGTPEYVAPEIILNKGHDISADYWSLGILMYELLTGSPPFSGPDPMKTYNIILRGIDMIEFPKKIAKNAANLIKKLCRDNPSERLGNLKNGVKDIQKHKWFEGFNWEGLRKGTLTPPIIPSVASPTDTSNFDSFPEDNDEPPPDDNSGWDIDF
Chain of UniProt Q9UIK4 (whole entry, looked up): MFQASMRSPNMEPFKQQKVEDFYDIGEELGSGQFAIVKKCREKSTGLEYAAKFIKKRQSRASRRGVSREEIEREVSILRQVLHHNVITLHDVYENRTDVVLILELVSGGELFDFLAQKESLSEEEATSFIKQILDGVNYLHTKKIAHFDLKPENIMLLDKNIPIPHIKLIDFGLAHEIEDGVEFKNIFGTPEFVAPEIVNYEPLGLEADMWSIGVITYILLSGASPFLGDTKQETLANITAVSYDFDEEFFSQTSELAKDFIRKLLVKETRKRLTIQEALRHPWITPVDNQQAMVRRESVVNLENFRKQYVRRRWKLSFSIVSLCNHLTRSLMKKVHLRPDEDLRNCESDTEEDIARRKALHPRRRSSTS

Block 1 — read-out: binding; method: radioligand binding; tested at: 10 µM
Target: Muscarinic acetylcholine receptor M2 (CHRM2, Homo sapiens, UniProt P08172)
Chain of UniProt P08172 (whole entry, looked up): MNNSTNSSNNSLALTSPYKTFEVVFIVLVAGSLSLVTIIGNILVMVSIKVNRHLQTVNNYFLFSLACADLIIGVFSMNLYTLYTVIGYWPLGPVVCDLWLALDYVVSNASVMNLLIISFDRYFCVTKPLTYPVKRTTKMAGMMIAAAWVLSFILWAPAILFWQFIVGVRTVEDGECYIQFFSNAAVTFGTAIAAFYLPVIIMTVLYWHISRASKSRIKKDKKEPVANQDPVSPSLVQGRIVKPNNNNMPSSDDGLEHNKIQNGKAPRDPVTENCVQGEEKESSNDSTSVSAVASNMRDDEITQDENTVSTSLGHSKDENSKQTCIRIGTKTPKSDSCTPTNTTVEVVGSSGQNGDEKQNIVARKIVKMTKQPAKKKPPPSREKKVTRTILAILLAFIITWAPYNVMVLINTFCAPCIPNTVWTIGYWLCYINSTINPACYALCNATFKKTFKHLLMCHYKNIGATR
| Compound | inhibition [%] |
| --- | --- |
| CNC(=O)Nc1ccc2c(c1)[C@]1(CC2)OC(=O)N(CC(=O)N(Cc2ccc(F)cc2)[C@@H](C)C(F)(F)F)C1=O | 3.15 |
| O=C(Nc1cnc(Oc2ccc(F)cc2)nc1)N1CCc2ncccc2[C@@H]1c1ccc(F)cc1 | -5.1 |
| O=C([C@H]1C[C@H](O)CN1c1ccc(Cl)cc1)N1CC2COCC(C1)N2Cc1ccc(Cl)cc1 | 1.89 |
| CC(=O)Nc1c(F)cc(C(=O)N[C@H]2CC[C@H](O)CC2)cc1O[C@@H](C)c1ccccc1 | 18.1 |
| O=C(O)c1cc(-c2ccc(C3CCNCC3)cc2)c2ccc(-c3ccc(C(F)(F)F)cc3)cc2c1 | 10.9 |
| O=C(Nc1cccnn1)N1CCC(=Cc2cccc(Oc3ccc(C(F)(F)F)cn3)c2)CC1 | 20.8 |
| CC1=C(C#N)[C@@H](c2ccc3[nH]nc(C)c3c2)C(C#N)=C(c2ccc(Cl)cc2)N1 | 18.8 |
| CCOCCn1cc(C(=O)Nc2ccc(-n3nc(-c4cccnc4)cc3C(F)(F)F)cn2)ccc1=O | -3 |
| CC(C)(O)c1cncc(-c2nc3ccc(F)cc3n2C2CC2)c1 | -0.1 |
| COCCc1ccc(-c2c(C)nc3c(N4CCOCC4)ccnn23)cn1 | 10.4 |
| Cc1nc(N2CC[C@@H](O)C2)ncc1-c1cc(C(F)(F)F)cc2[nH]ncc12 | -8.94 |
| CN1C(=O)[C@@H](N2CCc3cn(Cc4ccccc4)nc3C2=O)COc2ccccc21 | -4.37 |

Block 2 — method: RNA Bind-n-Seq; molecule type: RNA; sample: in vitro; tested at: 365 nM; baseline: no-protein control; reading: higher = stronger binding
Target: RNA binding protein fox-1 homolog 2, RRM domain, GST-SBP tag (RBFOX2, Homo sapiens, UniProt O43251-10, residues 100-194)
Setting: natural RNA segment, single round, ends assumed
Shared flanks, not repeated: GGGAGUUCUACAGUCCGACGAUC … UGGAAUUCUCGGGUGCCAA
Residues (chain): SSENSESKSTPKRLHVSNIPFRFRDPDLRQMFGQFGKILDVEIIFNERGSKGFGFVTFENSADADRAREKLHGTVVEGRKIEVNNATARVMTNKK
| Oligonucleotide | RBNS enrichment (R) |
| --- | --- |
| AGAGCCCGGCCACAAAUUCUGAGGAAAAACAAAAACUAAAGGAUGAACGAACGAACGAACGAAUGAAAACACACACAAAAUGUUUCAAGUUCCCCUAAAAUAUGACCCAC | 1.07 |
| GUUUAUCCUAAGGGAAUACCACUUUGCUCCCUGUGCAUAGUUUAGGAACUGUAGUCCUAGGAGGAAACAGCUUUAAAUAUUGGUAGUGAGUUGUCUAAGAUCAGGACUGU | 1.35 |
| CACUUUUGGUCAAUAUGUCAAAAUUCGGGGUCCACGCCAGGCUUGGGGGGCUUGGGAGUGUUUGUCAUGUGUCCUCAGUCCCAUGGAUUUGAAAUGACCCCUCCUCGCUG | 2.3 |
| UCCCUAGGUCCUUCCCUGGCUUGUUAUAACGCAAAGCUUGGUUGUUUAUGCAACUCUAUCUUAAGAACUGCCCAGCCUCAGCUGAAAACCCGAAUCUGAGAAGGAAUUGC | 1.84 |
| CACAUGCGGCUCAAGUCACUCAGAGGCUGUUGCAUUUCAGGGCUAUGUUGGUCCUUUGUUUACCUCCUAAACCACAGCUGUUUGUGUUUCACAUAUGUUGUGAAUUUUCC | 0.273 |
| AGGAAAGAGGUAGGAGAGGCCGUGGAAAGCUUGUGUCCAGACGUCACUCCGGACAGUCCGACUUCCGUGUGGAAUGUCAGUCAGUCGGCUAGAGGAGUGGCAUCUGGAGC | 2.82 |
| GGUCAUAUCUGCCACAAAGCACUUGGGCCCCCUGCAUUCAGGUGACCACCCCUCGCCUCCCCUUCUCCAGGACUAUGAGCUCUUCGUGGAGGCUGUGGAACAAAACACGC | 0.474 |
| AAAGCACUUGAUUAGUUUUUCAAGGCGUACCAUCACAAAGAUGCUUUCCUGCAGAGUUCUUUGUAUCAACAGCCUAUGGUUGAGAUGUUUUCUCAUUUCCUGUAGAGAGA | 0.302 |

Block 3 — method: RNA Bind-n-Seq; molecule type: RNA; sample: in vitro; tested at: 1 µM; setting: whole 134-nt RNA, ends assumed; added: 150 mM KCl; baseline: input library; reading: higher = stronger binding
Target: Ras GTPase-activating protein-binding protein 1, C-terminal RGG region (G3BP1, Homo sapiens, UniProt Q13283)
Chain of UniProt Q13283 (whole entry, looked up): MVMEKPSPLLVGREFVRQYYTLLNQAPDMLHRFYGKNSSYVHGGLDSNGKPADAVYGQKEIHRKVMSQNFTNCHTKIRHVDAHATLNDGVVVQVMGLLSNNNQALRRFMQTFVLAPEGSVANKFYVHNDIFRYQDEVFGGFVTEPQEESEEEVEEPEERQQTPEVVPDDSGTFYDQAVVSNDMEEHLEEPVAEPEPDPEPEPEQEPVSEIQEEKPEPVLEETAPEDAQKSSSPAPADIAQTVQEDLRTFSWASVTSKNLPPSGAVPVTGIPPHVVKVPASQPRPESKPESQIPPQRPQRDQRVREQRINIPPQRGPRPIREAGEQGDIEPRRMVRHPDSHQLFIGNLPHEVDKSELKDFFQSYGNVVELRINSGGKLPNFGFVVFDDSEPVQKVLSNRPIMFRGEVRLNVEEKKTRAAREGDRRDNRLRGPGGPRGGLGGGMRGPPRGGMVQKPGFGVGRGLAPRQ
Shared flanks, not repeated: GGGAGUUCUACAGUCCGACGAUC … UGGAAUUCUCGGGUGUCAAGG
| Oligonucleotide | log2 enrichment |
| --- | --- |
| GCAGGAAGUAAAAACACAUGGAAAUGCUUCGGAUAGUGGCAGGGGUGGGGGUUGCUAAGGAAAGGGUGGGAUGGGAGUGGGUAAAGAGUU | 1.92 |
| CCUGUGCUACACAUCGUAUGUACCGAAUCGGGCCCCCCCGGGCCCCCCCGGCCCCCCCGGGAAAGUAUUAUGUUACGCCGUUCGGAUCUG | -1.62 |
| CAAGUCCUGUGCUACACAUCGUAUGUACCGAAUCGGGUUUGGGAGGGAAAAAGGGAAAGUAUUAUGUUACGCCGUUCGGAUCUGCACUUC | 2.05 |
| CUCAAGUCCUGUGCUACACAUCGUAUGUACCGAAUCGGGCCCGGCCCGGCCCGGAAAGUAUUAUGUUACGCCGUUCGGAUCUGCACUUCC | -1.53 |
| CCUGUGCUACACAUCGUAUGUACCGAAUCGGGGUUUUUGGGGAAAAAAAGGGGAAAGGGGAAAGUAUUAUGUUACGCCGUUCGGAUCUGC | 1.03 |
| GUCCUGUGCUACACAUCGUAUGUACCGAAUCAAAUUUAAACCCCCAAACCCCCCCAAAAAAGUAUUAUGUUACGCCGUUCGGAUCUGCAC | -0.801 |
| UCCUGUGCUACACAUCGUAUGUACCGAAUCGGGUUUUUGGGGUUUUUGGGGUUUUUGGGGAAAGUAUUAUGUUACGCCGUUCGGAUCUGC | 0.618 |
| AGUCCUGUGCUACACAUCGUAUGUACCGAAUCGGCCCCCGGGCCCCCGGGCCCCCGGAAAGUAUUAUGUUACGCCGUUCGGAUCUGCACU | -2.02 |

Block 4 — Structure (SMILES): O=C1NC(=O)/C(=C/c2ccc3c(c2)OC(F)(F)O3)S1; read-out: enzyme activity; mode: inhibitor; tested at: 0.5 µM; baseline: control
| target | remaining activity |
| --- | --- |
| PRKACA (Homo sapiens, UniProt P17612) | 101% |
| NEK2 (Homo sapiens, UniProt P51955) | 98.9% |
| OXSR1 (Homo sapiens, UniProt O95747) | 97.1% |
| Cyclin-dependent kinase 4, with cyclin D1 (CDK4, Homo sapiens, UniProt P11802) | 97.1% |
| Protein kinase C beta type, isoform beta-I (PRKCB, Homo sapiens, UniProt P05771) | 97.7% |
| CAMKK2 (Homo sapiens, UniProt Q96RR4) | 82.9% |
| IKBKB (Homo sapiens, UniProt O14920) | 96.1% |
| DAPK2 (Homo sapiens, UniProt Q9UIK4) | 105% |
| STK39 (Homo sapiens, UniProt Q9UEW8) | 110% |
| CHEK2 (Homo sapiens, UniProt O96017) | 97.9% |
| TGFBR2 (Homo sapiens, UniProt P37173) | 107% |
| CAMK2D (Homo sapiens, UniProt Q13557) | 97.1% |
| STK10 (Homo sapiens, UniProt O94804) | 98.6% |
| cGMP-dependent protein kinase 1, isoform beta (PRKG1, Homo sapiens, UniProt Q13976) | 109% |
| GRK3 (Homo sapiens, UniProt P35626) | 102% |
| TGFBR1 (Homo sapiens, UniProt P36897) | 102% |
| IKBKE (Homo sapiens, UniProt Q14164) | 101% |
| Cyclin-dependent kinase 5, with p25 (CDK5, Homo sapiens, UniProt Q00535) | 89.7% |
| Tyrosine-protein kinase Lyn, isoform B (LYN, Homo sapiens, UniProt P07948) | 98.1% |
| MAPK9 (Homo sapiens, UniProt P45984) | 90.9% |
| DAPK1 (Homo sapiens, UniProt P53355) | 120% |

For quick reference, copied from above (block 4):
| target | remaining activity |
| --- | --- |
| Protein kinase C beta type, isoform beta-I (PRKCB, Homo sapiens, UniProt P05771) | 97.7% |
| STK10 (Homo sapiens, UniProt O94804) | 98.6% |
| NEK2 (Homo sapiens, UniProt P51955) | 98.9% |
| CAMK2D (Homo sapiens, UniProt Q13557) | 97.1% |
| CAMKK2 (Homo sapiens, UniProt Q96RR4) | 82.9% |
| OXSR1 (Homo sapiens, UniProt O95747) | 97.1% |
| GRK3 (Homo sapiens, UniProt P35626) | 102% |
